Measurements of several laboratories.
A part holds a random share of what one study measured. Several values in a cell are separate wells, animals, samples, runs or records.
UniProt P9WI81, sequence (whole entry, looked up): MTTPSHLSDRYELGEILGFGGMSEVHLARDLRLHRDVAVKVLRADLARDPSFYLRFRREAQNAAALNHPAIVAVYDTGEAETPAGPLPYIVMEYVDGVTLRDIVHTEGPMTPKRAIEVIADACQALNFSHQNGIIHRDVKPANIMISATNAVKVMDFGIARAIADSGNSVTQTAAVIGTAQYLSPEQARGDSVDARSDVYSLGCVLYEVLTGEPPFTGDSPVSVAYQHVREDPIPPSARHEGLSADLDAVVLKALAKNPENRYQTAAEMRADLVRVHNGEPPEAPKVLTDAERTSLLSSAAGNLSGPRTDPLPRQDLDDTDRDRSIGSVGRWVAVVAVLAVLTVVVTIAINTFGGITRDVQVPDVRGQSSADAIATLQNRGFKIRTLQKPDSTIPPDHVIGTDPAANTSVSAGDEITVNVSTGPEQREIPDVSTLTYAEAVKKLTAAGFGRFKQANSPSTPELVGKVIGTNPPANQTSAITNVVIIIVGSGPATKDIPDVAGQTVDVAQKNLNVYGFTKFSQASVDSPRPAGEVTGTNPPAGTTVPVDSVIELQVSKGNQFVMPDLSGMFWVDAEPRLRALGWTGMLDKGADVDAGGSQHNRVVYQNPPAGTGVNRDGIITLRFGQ
UniProt P28223, sequence (whole entry, looked up): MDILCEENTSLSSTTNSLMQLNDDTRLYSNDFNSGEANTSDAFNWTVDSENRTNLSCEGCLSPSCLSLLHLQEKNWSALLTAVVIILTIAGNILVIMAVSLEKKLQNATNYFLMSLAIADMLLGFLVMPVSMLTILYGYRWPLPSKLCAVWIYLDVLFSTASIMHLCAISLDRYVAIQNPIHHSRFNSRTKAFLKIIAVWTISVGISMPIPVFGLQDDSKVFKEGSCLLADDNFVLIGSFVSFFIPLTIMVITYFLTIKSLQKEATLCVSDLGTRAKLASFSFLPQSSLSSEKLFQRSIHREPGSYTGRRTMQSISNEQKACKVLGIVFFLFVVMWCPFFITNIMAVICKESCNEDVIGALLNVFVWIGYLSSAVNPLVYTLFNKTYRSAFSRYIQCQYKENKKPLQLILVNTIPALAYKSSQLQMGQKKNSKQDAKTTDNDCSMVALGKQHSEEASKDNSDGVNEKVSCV
UniProt P62344, sequence (whole entry, looked up): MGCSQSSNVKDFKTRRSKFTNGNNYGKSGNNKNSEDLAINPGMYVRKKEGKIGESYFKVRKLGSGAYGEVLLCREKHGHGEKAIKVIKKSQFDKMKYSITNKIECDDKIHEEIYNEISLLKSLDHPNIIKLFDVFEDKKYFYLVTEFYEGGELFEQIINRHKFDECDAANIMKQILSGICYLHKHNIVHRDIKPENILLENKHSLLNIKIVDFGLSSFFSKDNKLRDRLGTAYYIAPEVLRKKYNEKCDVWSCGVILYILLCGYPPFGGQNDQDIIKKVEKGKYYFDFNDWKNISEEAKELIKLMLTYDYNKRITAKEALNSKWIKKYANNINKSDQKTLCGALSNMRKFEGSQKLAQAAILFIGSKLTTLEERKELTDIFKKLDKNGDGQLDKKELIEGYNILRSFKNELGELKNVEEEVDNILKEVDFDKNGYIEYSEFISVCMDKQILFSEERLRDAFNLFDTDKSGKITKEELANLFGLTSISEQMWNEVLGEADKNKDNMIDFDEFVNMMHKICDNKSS

Set 1
Cell line: A-375
Concentration: 100 µM
Time: 18 h
Measurement: viability
O=C(O)[C@@H]1[C@H](C(=O)O)[C@H]2CC[C@@H]1O2: 86.1%
CCC[C@H](NC(=O)[C@@H]1[C@H]2CCC[C@H]2CN1C(=O)[C@@H](NC(=O)[C@@H](NC(=O)c1cnccn1)C1CCCCC1)C(C)(C)C)C(=O)C(=O)NC1CC1: 55.1%
C[C@]12C=CC(=O)C=C1CC[C@@H]1[C@@H]2CC[C@@]2(C)[C@H]1CC[C@]2(C)O: 89.1%
O=C(CCCN1CCC2(CC1)C(=O)NCN2c1ccccc1)c1ccc(F)cc1: 29.4%
CNCC(O)c1ccc(O)cc1 (centres unmarked): 92.6%
O=P1(N(CCCl)CCCl)NCCCO1 (centres unmarked): 84.4%
C[C@@H]1CC[C@@]2(OC1)O[C@H]1[C@@H](O)[C@H]3[C@@H]4CC[C@H]5C[C@@H](O[C@@H]6O[C@H](CO)[C@H](O[C@@H]7O[C@H](CO)[C@@H](O)[C@H](O[C@@H]8OC[C@@H](O)[C@H](O)[C@H]8O)[C@H]7O[C@@H]7O[C@H](CO)[C@H](O)[C@H](O[C@@H]8O[C@H](CO)[C@@H](O)[C@H](O)[C@H]8O)[C@H]7O)[C@H](O)[C@H]6O)[C@H](O)C[C@]5(C)[C@H]4CC[C@]3(C)[C@H]1[C@@H]2C: 8.08%
C[C@]12CC[C@H]3[C@@H](CCC4=CC(=O)CC[C@@]43C)[C@@H]1CC[C@@H]2O: 94.8%
Cc1cccc([C@H](C)c2cnc[nH]2)c1C: 99.6%
CC[C@@]1(O)C(=O)OCc2c1cc1n(c2=O)Cc2cc3cc(O)ccc3nc2-1: 59%

Set 2
Target: DNA polymerase theta, ATPase domain (POLQ, Homo sapiens, UniProt O75417)
UniProt O75417, sequence (whole entry, unmodified, looked up): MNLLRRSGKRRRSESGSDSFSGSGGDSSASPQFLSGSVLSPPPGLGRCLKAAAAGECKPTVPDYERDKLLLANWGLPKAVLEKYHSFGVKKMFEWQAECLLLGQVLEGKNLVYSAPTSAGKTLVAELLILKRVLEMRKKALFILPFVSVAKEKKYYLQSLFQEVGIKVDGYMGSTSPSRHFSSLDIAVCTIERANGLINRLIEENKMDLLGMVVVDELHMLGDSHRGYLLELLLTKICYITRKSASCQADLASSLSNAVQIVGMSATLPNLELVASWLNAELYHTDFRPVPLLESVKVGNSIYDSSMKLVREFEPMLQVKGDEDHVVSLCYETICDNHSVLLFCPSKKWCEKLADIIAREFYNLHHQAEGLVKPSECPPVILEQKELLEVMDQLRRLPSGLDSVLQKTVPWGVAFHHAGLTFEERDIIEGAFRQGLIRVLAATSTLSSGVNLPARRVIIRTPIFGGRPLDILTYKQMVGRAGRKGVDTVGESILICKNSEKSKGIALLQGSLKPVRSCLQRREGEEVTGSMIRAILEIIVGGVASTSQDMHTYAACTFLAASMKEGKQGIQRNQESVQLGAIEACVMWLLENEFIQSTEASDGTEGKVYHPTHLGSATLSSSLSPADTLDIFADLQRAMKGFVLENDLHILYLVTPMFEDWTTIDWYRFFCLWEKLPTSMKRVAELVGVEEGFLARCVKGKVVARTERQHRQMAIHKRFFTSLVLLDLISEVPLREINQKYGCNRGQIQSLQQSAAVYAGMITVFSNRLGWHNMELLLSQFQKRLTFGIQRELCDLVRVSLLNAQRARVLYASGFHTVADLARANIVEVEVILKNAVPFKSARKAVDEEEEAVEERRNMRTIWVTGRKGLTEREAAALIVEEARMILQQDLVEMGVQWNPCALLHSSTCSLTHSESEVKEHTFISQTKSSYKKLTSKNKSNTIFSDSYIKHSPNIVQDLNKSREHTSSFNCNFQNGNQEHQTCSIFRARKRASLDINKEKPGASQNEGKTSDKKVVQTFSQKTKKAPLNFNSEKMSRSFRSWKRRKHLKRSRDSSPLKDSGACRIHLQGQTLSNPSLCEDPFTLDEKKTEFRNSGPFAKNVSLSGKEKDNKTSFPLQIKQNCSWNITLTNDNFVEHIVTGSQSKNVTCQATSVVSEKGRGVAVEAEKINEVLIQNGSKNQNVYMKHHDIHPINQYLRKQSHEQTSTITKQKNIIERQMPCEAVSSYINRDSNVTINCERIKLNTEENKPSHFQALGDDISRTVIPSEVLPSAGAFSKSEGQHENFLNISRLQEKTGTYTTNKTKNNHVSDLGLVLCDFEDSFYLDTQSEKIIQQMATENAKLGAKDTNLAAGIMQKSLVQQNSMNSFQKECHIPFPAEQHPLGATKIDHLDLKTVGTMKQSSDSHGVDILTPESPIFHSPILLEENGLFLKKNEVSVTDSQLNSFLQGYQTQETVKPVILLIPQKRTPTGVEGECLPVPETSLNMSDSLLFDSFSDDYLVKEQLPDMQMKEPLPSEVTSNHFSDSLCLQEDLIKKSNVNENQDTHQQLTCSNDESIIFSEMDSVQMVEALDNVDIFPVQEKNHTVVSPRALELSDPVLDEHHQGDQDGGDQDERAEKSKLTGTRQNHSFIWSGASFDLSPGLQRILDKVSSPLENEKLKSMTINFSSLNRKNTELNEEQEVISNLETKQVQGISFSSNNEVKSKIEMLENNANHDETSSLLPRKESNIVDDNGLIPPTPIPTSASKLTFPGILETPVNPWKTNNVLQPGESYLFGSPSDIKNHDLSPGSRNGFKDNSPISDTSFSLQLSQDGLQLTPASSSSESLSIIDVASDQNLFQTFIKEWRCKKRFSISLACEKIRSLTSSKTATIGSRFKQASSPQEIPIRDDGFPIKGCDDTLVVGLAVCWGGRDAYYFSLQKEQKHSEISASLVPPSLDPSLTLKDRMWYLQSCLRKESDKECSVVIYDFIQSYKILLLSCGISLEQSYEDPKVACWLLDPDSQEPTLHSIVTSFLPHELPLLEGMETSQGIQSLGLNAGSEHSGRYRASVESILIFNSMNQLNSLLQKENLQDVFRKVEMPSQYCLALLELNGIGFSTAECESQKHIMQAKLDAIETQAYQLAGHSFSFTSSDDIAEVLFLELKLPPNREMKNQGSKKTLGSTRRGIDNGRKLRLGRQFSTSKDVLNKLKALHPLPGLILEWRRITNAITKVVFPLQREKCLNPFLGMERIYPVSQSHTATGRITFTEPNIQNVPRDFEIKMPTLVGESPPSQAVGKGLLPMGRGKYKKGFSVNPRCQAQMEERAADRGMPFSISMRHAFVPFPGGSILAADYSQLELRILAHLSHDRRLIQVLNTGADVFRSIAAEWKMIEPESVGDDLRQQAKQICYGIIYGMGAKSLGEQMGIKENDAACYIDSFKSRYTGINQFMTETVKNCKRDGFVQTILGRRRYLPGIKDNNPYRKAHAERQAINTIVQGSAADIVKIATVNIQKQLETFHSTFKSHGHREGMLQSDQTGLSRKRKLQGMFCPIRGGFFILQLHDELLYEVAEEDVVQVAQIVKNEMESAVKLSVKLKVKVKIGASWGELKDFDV
Read-out: enzyme activity
Action: inhibitor
Concentration: 77 µM
Relative to: untreated
Measurement: remaining activity
O=c1ccc2cc(O[C@@H]3O[C@H](CO)[C@@H](O)[C@H](O)[C@H]3O)c(O)cc2o1: 102% and 110%
COc1ccc(OC)c([C@@H](O)[C@H](C)N)c1: 100%
N#CC(C#N)=Cc1ccc(O)c(O)c1: 99.6%
CC(CCc1ccccc1)NC(C)C(O)c1ccc(O)cc1 (centres unmarked): 99.7%
CC(C)(C)NCC(O)c1cc(Cl)c(N)c(Cl)c1 (centres unmarked): 101%

Set 3
Cell line: HEK-293T
Read-out: pseudovirus infection
Technique: FDA-approved drug library counter-screen
Organism: VSV pseudotyped with VSV-G
Concentration: 10 µM
Time: 16 h
Relative to: vehicle-treated
Measurement: GFP-positive cells
C[C@@H]1O[C@@H](OC[C@H]2O[C@@H](Oc3c(-c4ccc(O)c(O)c4)oc4cc(O)cc(O)c4c3=O)[C@H](O)[C@@H](O)[C@@H]2O)[C@H](O)[C@H](O)[C@H]1O: 83.1%
COc1ccc2c(c1)c(CC(=O)O)c(C)n2C(=O)c1ccc(Cl)cc1: 116%
Nc1nc(F)nc2c1ncn2[C@@H]1O[C@H](CO)[C@@H](O)[C@@H]1O: 112%
Cc1ccc(=O)n(-c2ccccc2)c1: 93.8%
CCCCCCCCCCCCCCCCCCCCCCO: 95.4%
O=C(c1ccc(OCCN2CCCCC2)cc1)c1c(-c2ccc(O)cc2)sc2cc(O)ccc12: 97.5%
CC#CCn1c(N2CCC[C@@H](N)C2)nc2c1c(=O)n(Cc1nc(C)c3ccccc3n1)c(=O)n2C: 107%
C[C@]12COC(=O)C[C@@H]1CC[C@@H]1[C@@H]2CC[C@@]2(C)[C@H]1CC[C@]2(C)O: 90.9%
CC(=O)Nc1ccc(O)cc1: 123%
COC(c1ccccc1)(c1ccccc1)[C@H](Oc1nc(C)cc(C)n1)C(=O)O: 104%
CCCNC(=O)NS(=O)(=O)c1ccc(Cl)cc1: 74.9%
C[C@]12CC[C@@H]3c4ccc(OS(=O)(=O)O)cc4CC[C@H]3[C@@H]1CCC2=O: 87%
CNC[C@H](O)c1cccc(O)c1: 124%
CCN(CC)C(=O)[C@@]1(c2ccccc2)C[C@H]1CN: 94.9%

Further values, each from its own experiment
CNC(=O)Nc1ccc2c(c1)CC[C@@]21OC(=O)N(CC(=O)N(Cc2ccc(F)cc2)[C@@H](C)C(F)(F)F)C1=O
remaining binding (Calcium-dependent protein kinase 1 (CDPK1, Plasmodium falciparum, UniProt P62344); cell-free assay, competition with immobilised ligand; 1 µM): 83%

O=C(Nc1cccnn1)N1CCC(=Cc2cccc(Oc3ccc(C(F)(F)F)cn3)c2)CC1
inhibition (5-hydroxytryptamine receptor 2A (HTR2A, Homo sapiens, UniProt P28223); binding, radioligand binding; 10 µM): 82.9%

CC(=O)Nc1c(C(C)=O)c(=O)n(C)c2nc(-c3ccc(Cl)cc3Cl)c(-c3ccc(Cl)cc3)cc12
remaining binding (Serine/threonine-protein kinase PknB (pknB, Mycobacterium tuberculosis, UniProt P9WI81); cell-free assay, competition with immobilised ligand; 1 µM): 100%

Some of these lines once more (set 3):
C[C@]12COC(=O)C[C@@H]1CC[C@@H]1[C@@H]2CC[C@@]2(C)[C@H]1CC[C@]2(C)O: 90.9%
COC(c1ccccc1)(c1ccccc1)[C@H](Oc1nc(C)cc(C)n1)C(=O)O: 104%
CNC[C@H](O)c1cccc(O)c1: 124%
Nc1nc(F)nc2c1ncn2[C@@H]1O[C@H](CO)[C@@H](O)[C@@H]1O: 112%
